# Results gathered from unrelated publications.
# Protocols differ between the studies behind these lines.
SMILES,organism,test,system,setting,MIC
NCC1OC(OC2C(N)CC(N)C(OC3OC(CSc4ccccc4)C(O)C(N)C3O)C2O)C(N)CC1O (stereo not shown),Streptococcus pyogenes,,M12 MGAS9429,,18.8 µg/mL
CN1C(=O)[C@@H]2NC(=O)[C@@H]3NC(=O)[C@@H](c4ccc(O)cc4)NC(=O)[C@H](NC(=O)C(NCc4ccc(O)c(O)c4O)c4ccc(O)cc4)Cc4c[nH]c5cc(ccc45)-c4cc3cc(c4O)Oc3ccc(cc3)C[C@H]1C(=O)N[C@@H](C(=O)O)c1ccc(O)c(c1)Oc1ccc2cc1 (stereo partly shown),Enterococcus faecium,,brain heart infusion medium,,16 µg/mL
CN[C@@H]1[C@H](O)[C@H](NC)[C@H]2O[C@]3(O)[C@H](O[C@@H]2[C@H]1O)O[C@H](C)C[C@@]3(O)CNCc1ccccc1,Streptococcus pyogenes,,ATCC 700294,,3.1 µg/mL
CC[C@H](C)[C@H](NC(=O)[C@@H](NC(=O)CN)C(C)C)C(=O)N[C@@H](Cc1ccccc1)C(=O)N[C@@H](CC(N)=O)C(=O)N[C@@H](C)C(=O)N[C@@H](CC(C)C)C(=O)N[C@@H](CCCCN)C(=O)NCC(=O)N[C@H](C(=O)N[C@@H](C)C(=O)N[C@@H](CCCCN)C(=O)N[C@H](C(=O)N[C@H](C(=O)N[C@@H](C)C(=O)N[C@@H](C)C(=O)N[C@@H](CCC(N)=O)C(=O)N[C@@H](CC(C)C)C(=O)N[C@@H](CC(C)C)C(=O)N[C@@H](CCCCN)C(=O)N[C@@H](CCCCN)C(=O)N[C@@H](C)C(=O)N[C@@H](CCCNC(=N)N)C(=O)N[C@H]1CSSC[C@@H](C(=O)O)NC(=O)[C@H](CO)NC(=O)[C@H](CCCCN)NC(=O)[C@H](CC(=O)O)NC(=O)[C@H](CC(C)C)NC(=O)[C@H](CCCCN)NC1=O)C(C)C)[C@@H](C)O)C(C)C,Staphylococcus aureus,,"NCTC 10788, Mueller-Hinton broth",together with: FeCl3 4 mM,2 µM
CN1C(=O)[C@@H]2NC(=O)[C@@H]3NC(=O)[C@@H](c4ccc(O)cc4)NC(=O)[C@H](NC(=O)C(N)c4ccc(O)cc4)Cc4c[nH]c5cc(ccc45)-c4cc3cc(c4O)Oc3ccc(cc3)C[C@H]1C(=O)N[C@@H](C(=O)O)c1ccc(O)c(c1)Oc1ccc2cc1 (stereo partly shown),Enterococcus faecium,,brain heart infusion medium,,8 to 16 µg/mL
CCCCCCSCC1OC(OC2C(N)CC(N)C(OC3OC(CN)C(O)CC3N)C2O)C(O)C(N)C1O (stereo not shown),Shigella,,clinical isolate,,> 150 µg/mL
c1ccc(CCNC2CCCc3c2[nH]c2ccc(C4CCCCC4)cc32)cc1 (stereo not shown),Streptococcus parasanguinis,broth microdilution,"ATCC 903, THY medium",,5 µg/mL
CCCCc1ccc(-c2nc(C)c(C(C)=NNC(=N)N)s2)cc1,Staphylococcus aureus,,NRS119 MRSA,,2.6 µg/mL
[O-][N+]1=C(c2ccc(Cl)cc2)C2=NCCCCN2c2ccccc21,Porphyromonas sp.,,,,0.25 µg/mL
CO[C@H]1/C=C/O[C@@]2(C)Oc3c(C)c(O)c4c(c3C2=O)C2=NC3(CCN(CC(C)C)CC3)NC2=C(NC(=O)/C(C)=C\C=C\[C@H](C)[C@H](O)[C@@H](C)[C@@H](O)[C@@H](C)[C@H](OC(=O)c2ccccc2F)[C@@H]1C)C4=O,Mycobacteroides abscessus,,ATCC 19977 arr deletion,90% growth inhibition,0.058 µM
CN1C(=O)[C@@H]2NC(=O)[C@@H]3NC(=O)[C@@H](c4ccc(O)cc4)NC(=O)[C@H](NC(=O)C(NCc4cccc(O)c4O)c4ccc(O)cc4)Cc4c[nH]c5cc(ccc45)-c4cc3cc(c4O)Oc3ccc(cc3)C[C@H]1C(=O)N[C@@H](C(=O)O)c1ccc(O)c(c1)Oc1ccc2cc1 (stereo partly shown),Enterococcus faecium,,brain heart infusion medium,,16 to 32 µg/mL
CN[C@@H]1[C@H](O)[C@H](NC)[C@H]2O[C@]3(O)[C@H](O[C@@H]2[C@H]1O)O[C@H](C)C[C@@]3(O)CNCCC1CCOCC1,Mycobacteroides abscessus,,ATCC 19977 ∆whiB7 ∆tap,120 h,8 µg/mL
CCC(C)C(=O)OC1C(C)C(OC)C=COC2(C)Oc3c(C)c(O)c4c(c3C2=O)C2=NC3(CCN(CC(C)C)CC3)NC2=C(NC(=O)C(C)=CC=CC(C)C(O)C(C)C(O)C1C)C4=O (mixture of isomers),Mycobacteroides abscessus,,ATCC 19977 arr deletion,90% growth inhibition,0.028 µM
COc1ccc(C2=[N+]([O-])c3ccccc3N3CC(C)(C)CN=C23)cc1,Porphyromonas sp.,,,,0.25 µg/mL
CN(C)CCCNC(=O)[C@@H]1NC(=O)[C@@H]2Cc3ccc(cc3)Oc3cc4cc(c3O)-c3ccc5c(c[nH]c5c3)C[C@@H](NC(=O)C(NC(=O)CCCCCN)c3ccc(O)cc3)C(=O)N[C@H](c3ccc(O)cc3)C(=O)N[C@H]4C(=O)N[C@@H](C(=O)N2C)c2ccc(cc2)Oc2cc1ccc2O (stereo partly shown),Enterococcus faecium,,"WCC 0553, VRE-B, BHI medium",,1 to 2 µg/mL
OB(O)c1ccc(OCc2ccccc2)nc1F,Enterobacter cloacae,bacterial growth,AmpC-overproducing clinical isolate,cefotaxime alone,8 µg/mL
CC[C@@H](C)[C@@H](NC(=O)[C@@H](C)NC(=O)[C@@H](CCCCN)NC(=O)[C@@H](CC(C)C)NC(=O)[C@@H](C)NC(=O)[C@H](NC(=O)[C@@H](Cc1c[nH]cn1)NC(=O)[C@@H](CC(C)C)NC(=O)[C@H](NC(=O)[C@H](NC(=O)[C@@H](CCCCN)NC(=O)[C@@H](CCCCN)NC(=O)[C@@H](C)NC(=O)[C@@H](CO)NC(=O)[C@@H](CCCCN)NC(=O)[C@@H](Cc1ccccc1)NC(=O)[C@H](NC(=O)[C@@H](CCCCN)NC(=O)[C@@H](CC(C)C)NC(=O)[C@@H](Cc1ccccc1)NC(=O)[C@@H](CO)NC(=O)[C@@H](CCCCN)NC(=O)[C@@H](Cc1c[nH]c2ccccc12)NC(=O)[C@@H](CCCCN)NC(C)=O)[C@H](C)O)[C@H](C)O)C(C)C)[C@H](C)O)C(=O)N[C@H](CO)C(=O)N[C@H](CO)C(N)=O,Acinetobacter baumannii,broth microdilution,ATCC 19606,"24 h, 37 °C",1.5 µM
CN[C@@H]1[C@H](O)[C@H](NC)[C@H]2O[C@]3(O)[C@H](O[C@@H]2[C@H]1O)O[C@H](C)C[C@@]3(O)CNCc1ccc(F)cc1,Mycobacteroides abscessus,,ATCC 19977 whiB7 MAB_2355 deleted,120 h,16 µg/mL
CN1C(=O)[C@@H]2NC(=O)[C@@H]3NC(=O)[C@@H](c4ccc(O)cc4)NC(=O)[C@H](NC(=O)C(NCc4ccccn4)c4ccc(O)cc4)Cc4c[nH]c5cc(ccc45)-c4cc3cc(c4O)Oc3ccc(cc3)C[C@H]1C(=O)N[C@@H](C(=O)O)c1ccc(O)c(c1)Oc1ccc2cc1 (stereo partly shown),Enterococcus faecium,,brain heart infusion medium,,16 µg/mL
S=C(NCc1ccccn1)NCc1ccccn1,Proteus vulgaris,"microbial growth, well diffusion",,,12.2 µg/mL
CN[C@@H]1[C@H](O)[C@H](NC)[C@H]2O[C@]3(O)[C@H](O[C@@H]2[C@H]1O)O[C@H](C)C[C@@]3(O)CNCCc1ccc(F)cc1,Mycobacteroides abscessus,,ATCC 19977 whiB7 MAB_2355 deleted,120 h,1 to 2 µg/mL
C[N+]1=C2C(c3ccc(Cl)cc3)=[N+]([O-])c3ccccc3N2CCC1,Porphyromonas sp.,,,,4 µg/mL
CC[C@H](C)[C@H](NC(=O)[C@H](CCCCN)NC(=O)[C@H](CCCCN)NC(=O)[C@H](Cc1ccccc1)NC(=O)[C@H](Cc1ccccc1)NC(=O)[C@H](CCCCN)NC(=O)[C@H](CCCCN)NC(=O)[C@H](Cc1ccccc1)NC(=O)[C@H](CCCNC(=N)N)NC(=O)[C@@H](N)CCCCN)C(=O)N[C@@H](CCCCN)C(=O)N[C@@H](CCCCN)C(=O)N[C@@H](CO)C(=O)N[C@H](C(=O)N[C@@H](CCCCN)C(=O)N[C@@H](CCCCN)C(=O)N[C@@H](CCCNC(=N)N)C(=O)N[C@H](C(=O)N[C@@H](CCCCN)C(=O)N[C@@H](CCCCN)C(=O)N[C@@H](CC(C)C)C(=O)N[C@@H](Cc1ccccc1)C(=O)N[C@@H](CCCCN)C(=O)N[C@@H](CCCCN)C(=O)N1CCC[C@H]1C(=O)N[C@@H](CCCNC(=N)N)C(=O)N[C@H](C(=O)N[C@H](C(=O)N1CCC[C@H]1C(=O)N[C@H](C(=O)N[C@@H](CO)C(=O)N[C@H](C(=O)N1CCC[C@H]1C(=O)N[C@@H](Cc1ccccc1)C(=O)O)[C@@H](C)CC)[C@@H](C)CC)[C@@H](C)CC)C(C)C)C(C)C)C(C)C,Helicobacter pylori,,SS1,48 h,4 µg/mL
C[N+]1=C2C(c3ccc([N+](=O)[O-])cc3)=[N+]([O-])c3ccccc3N2CCC1,Parvimonas micra,,ATCC 3870,,≤ 0.06 µg/mL
CCCCCCCCCCCC[S+]([O-])CC1OC(OC2C(N)CC(N)C(OC3OC(CN)C(O)CC3N)C2O)C(O)C(N)C1O (mixture of isomers),Streptococcus pyogenes,,M12 MGAS9429,,18.8 µg/mL
CO[C@H]1/C=C/O[C@@]2(C)Oc3c(C)c(O)c4c(c3C2=O)C2=NC3(CCN(CC(C)C)CC3)NC2=C(NC(=O)/C(C)=C\C=C\[C@H](C)[C@H](O)[C@@H](C)[C@@H](O)[C@@H](C)[C@H](OC(=O)c2cccc(C)c2)[C@@H]1C)C4=O,Mycobacteroides abscessus,,ATCC 19977 arr deletion,90% growth inhibition,0.065 µM
[O-][N+]1=C(c2ccccc2)C2=NCCN2c2ccccc21,Parvimonas micra,,ATCC 3870,,≤ 0.06 µg/mL
CCCCCCCCCCCCCC(=O)N[C@H](CCN)C(=O)N[C@@H]1C(=O)N[C@@H](CCN)C(=O)N[C@@H](CC(C)C)C(=O)N[C@@H](CCN)C(=O)N[C@H](Cc2ccccc2)C(=O)N[C@@H](CC(C)C)C(=O)N[C@@H](CCN)C(=O)N[C@H](Cc2ccc(O)cc2)C(=O)N[C@@H](C(C)C)C(=O)N[C@@H](CC(=O)O)C(=O)O[C@@H]1C,Enterobacter cloacae,broth microdilution,BNCC 185028,,4 µg/mL
